Published values of several laboratories.
Each line is one published result; not all experiments were run side by side. “And” joins repeats or separate records; there may be more than shown. Numbers after ± are the reported error.
GBA2: Beta-glucosidase (GBA2, Homo sapiens, UniProt Q9HCG7)
UniProt Q9HCG7, sequence (whole entry, looked up): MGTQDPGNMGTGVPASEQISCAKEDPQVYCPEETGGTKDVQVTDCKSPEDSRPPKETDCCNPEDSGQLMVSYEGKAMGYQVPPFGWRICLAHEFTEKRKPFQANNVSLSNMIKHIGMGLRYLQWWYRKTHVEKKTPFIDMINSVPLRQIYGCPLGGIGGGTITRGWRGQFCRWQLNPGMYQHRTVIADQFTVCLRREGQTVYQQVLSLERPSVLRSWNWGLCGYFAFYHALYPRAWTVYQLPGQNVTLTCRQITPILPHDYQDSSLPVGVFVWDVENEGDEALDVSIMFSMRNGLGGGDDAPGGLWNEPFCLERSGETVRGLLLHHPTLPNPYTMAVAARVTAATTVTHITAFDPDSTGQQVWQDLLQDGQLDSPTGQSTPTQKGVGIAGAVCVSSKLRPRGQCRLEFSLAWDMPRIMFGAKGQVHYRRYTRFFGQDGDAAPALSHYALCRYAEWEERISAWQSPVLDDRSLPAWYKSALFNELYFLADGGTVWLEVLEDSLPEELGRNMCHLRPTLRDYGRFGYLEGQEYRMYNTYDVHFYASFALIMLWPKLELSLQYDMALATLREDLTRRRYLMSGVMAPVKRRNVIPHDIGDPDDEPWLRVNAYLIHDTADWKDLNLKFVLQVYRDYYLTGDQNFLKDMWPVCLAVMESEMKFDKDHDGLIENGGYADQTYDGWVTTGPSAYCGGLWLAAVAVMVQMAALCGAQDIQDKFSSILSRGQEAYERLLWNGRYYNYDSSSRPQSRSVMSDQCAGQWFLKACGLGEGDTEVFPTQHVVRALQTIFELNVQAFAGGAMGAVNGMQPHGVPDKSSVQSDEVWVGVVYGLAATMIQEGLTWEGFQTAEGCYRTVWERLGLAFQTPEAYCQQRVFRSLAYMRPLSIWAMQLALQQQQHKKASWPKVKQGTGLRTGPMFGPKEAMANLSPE

CCN(CC)CC(=O)Nc1cccc(-n2cc(-c3ccc4ccc(-c5cn(-c6cccc(NC(=O)CN(CC)CC)c6)nn5)cc4c3)nn2)c1
fold regulation (RCC4; PCR angiogenesis array, refers to: TIMP3; 5 x IC50, 4 h, normoxia; baseline: untreated): 5.54 fold

O=C(N/N=C/c1cc[n+](CC2CC2)c2ccccc12)C(=O)N/N=C/c1cc[n+](CC2CC2)c2ccccc12
ΔTm (myc22 MYC G4-DNA parallel; FRET melting; 1 µM, K1 buffer, DNA 0.2 µM, added: ds26 10 µM): 2.1 ± 1.7 °C

CN1CCCNC(=O)c2cccc(c2)C(=O)NCCCN(C)CCCNc2cccc3c2C(=O)c2cccc(c2C3=O)NCCC1
log2 fold change (SAS; RNA-Seq, refers to: TIMM10B mRNA; 1 µM, 6 h; baseline: untreated cells): -2.6

CC(C)(O)c1ccn2c(-c3ccc(F)c(-c4ccc(F)cc4C#N)c3)cnc2c1F
surface fluorescence intensity (hiPSC-derived GABAergic neurons α1 G251D; surface immunofluorescence, refers to: GABAA α1, β2/β3, γ2 subunits; 5 µM, 24 h, added: hispidulin 10 µM): increased

C=CC(=O)N1[C@@H](c2ccc3c(c2)OCO3)c2[nH]c3ccccc3c2C[C@H]1C(=O)N1CCN(C)CC1
relative co-enrichment (human cyclin E1 N112C-3xFLAG:CDK2; co-IP with TMT proteomics, refers to: CKS1B; concentration not given, P61024; baseline: wild type DMSO): 199%

O=C(N/N=C/c1cc[n+](CC2CC2)c2ccccc12)c1cccc(C(=O)N/N=C/c2cc[n+](CC3CC3)c3ccccc23)n1
ΔTm (myc22 MYC G4-DNA parallel; FRET melting; 1 µM, K1 buffer, DNA 0.2 µM): 25.1 ± 0.3 °C

COC1CN([C@H]2CC[C@H]([C@@]3(C)Oc4c(Cl)cc(C(=O)NCc5c(SC)cc(C)[nH]c5=O)c(C)c4O3)CC2)C1
log2 fold change (RNA-seq, refers to: MMP9; human, whole blood; dose not given, 24 h; baseline: pretreatment baseline): 1.99

C[n+]1ccc(/C=N/NC(=O)c2cccc(C(=O)N/N=C/c3cc[n+](C)cc3)c2)cc1
ΔTm (myc22 MYC G4-DNA parallel; FRET melting; 1 µM, K1 buffer, DNA 0.2 µM, added: ds26 10 µM): 0 ± 1.2 °C

c1ccc(-c2n[nH]cc2-c2ccnc3ccccc23)nc1
log2 fold change (GCN2 (Candida albicans); kinase binding, MIB/MS competition; Candida albicans lysate; 1 µM; baseline: DMSO): -0.24

O=C(N/N=C/c1cc[n+](Cc2ccccc2)c2ccccc12)c1cccc(C(=O)N/N=C/c2cc[n+](Cc3ccccc3)c3ccccc23)n1
ΔTm (myc22 MYC G4-DNA parallel; FRET melting; 1 µM, K1 buffer, DNA 0.2 µM, added: ds26 10 µM): 17.8 ± 2.5 °C

OC[C@@H]1[C@@H](O)[C@H](O)[C@@H](O)CN1CCCCCOCC1CCOCC1
selectivity ratio (GBA2; inhibitor, 4MU-β-D-glucopyranoside; HEK293T homogenates overexpressing GBA2; baseline: GCS IC50 over GBA2 IC50): 286

CN1CCC[C@]1(C)/C=C/S(=O)(=O)NC(=O)Nc1c2c(cc3c1CCC3)CCC2
IL-1β inhibition (human, whole blood ex vivo; 25 mg single dose, 24 h, single ascending dose, added: LPS and ATP): 49.8%

C=CC(=O)Nc1cccc(Cn2ncc3cnc(Nc4cnn(CCOC)c4)nc32)c1
percent of control (SGK2 human; binding, KINOMEscan; 100 nM; lower = stronger binding): 76%

OC[C@H]1[C@@H](O)[C@H](O)[C@@H](O)CN1CCCCCOCc1ccc2ccccc2c1
selectivity ratio (GBA2; inhibitor, 4MU-β-D-glucopyranoside; HEK293T homogenates overexpressing GBA2; baseline: GBA1 IC50 over GBA2 IC50): 50000

Nc1ncc(-c2cc(-c3cnn(CC(F)(F)F)c3)ncc2F)nc1C(=O)NC1CNCC(F)C1 (centres unmarked)
remaining binding (MARK1; KINOMEscan; 1 µM; baseline: DMSO control): 80%

O=C(N/N=C/c1ccc(C[n+]2ccccc2)cc1)c1cccc(C(=O)N/N=C/c2ccc(C[n+]3ccccc3)cc2)c1
ΔTm (myc22 MYC G4-DNA parallel; FRET melting; 1 µM, K1 buffer, DNA 0.2 µM): 2.4 ± 1.2 °C

COc1cc(O)ccc1CCC(c1ccc(O)cc1)c1cc2c(c(C)c1O)OC(c1ccc(O)cc1)CC2 (mixture of isomers)
DHA level (human blood; 10 µM, added: A23187): 112000 ± 34900 pg/mL

C[n+]1ccc(/C=N/NC(=O)c2cncc(C(=O)N/N=C/c3cc[n+](C)cc3)n2)cc1
ΔTm (myc22 MYC G4-DNA parallel; FRET melting; 1 µM, K1 buffer, DNA 0.2 µM, added: ds26 10 µM): 3.4 ± 0.5 °C

CCN(C(=O)c1cc(F)ccc1Oc1nncnc1N1CCC2(C1)CN([C@H](CCCN(C)CCOC)C(C)C)C2)C(C)C
GI50 (Granta-519; cell growth or viability; 72 h): > 10000 nM

C[n+]1cccc2cc(/C=N/NC(=O)c3cncc(C(=O)N/N=C/c4ccc5c(ccc[n+]5C)c4)n3)ccc21
ΔTm (myc22 MYC G4-DNA parallel; FRET melting; 1 µM, K1 buffer, DNA 0.2 µM, added: ds26 10 µM): 18.9 ± 0.4 °C

CCCC[C@H](NC(=O)COCCOCCNC(=O)CN1CCN(CC(=O)O)CCN(CC(=O)O)CC1)C(=O)N[C@H]1CC(=O)NCCCC[C@@H](C(N)=O)NC(=O)[C@H](Cc2c[nH]c3ccccc23)NC(=O)[C@H](CCCNC(=N)N)NC(=O)[C@@H](Cc2ccccc2)NC(=O)[C@H](Cc2c[nH]cn2)NC1=O [technetium-99m labelled]
tissue uptake (C57 mouse, muscle; intravenous, 0.037 MBq, 2 h): 0.05 ± 0.04 %ID/g

Cc1ncsc1-c1ccc(C(C)NC(=O)C2CC(O)CN2C(=O)C(NC(=O)CCCCCCCCCCN2CCCC(Nc3ncc(Cl)c(Nc4ccccc4S(=O)(=O)C(C)C)n3)C2)C(C)(C)C)cc1 (centres unmarked)
log2 fold change (22Rv1; RNA-seq, refers to: SLC17A5 mRNA; concentration not given; baseline: DMSO): -1.2

CC(C)C[C@H](NC(=O)[C@H](Cc1ccc(O)cc1)NC(=O)[C@@H](CCCNC(=N)N)NC(=O)[C@@H](CO)NC(=O)[C@H](Cc1ccccc1)NC(=O)[C@H](CC1CCCCC1)NC(=O)[C@H](CC(=O)O)NC(=O)CN1CCN(CC(=O)O)CCN(CC(=O)O)CCN(CC(=O)O)CC1)C(=O)N[C@@H](Cc1c[nH]c2ccccc12)C(=O)N[C@@H](CO)C(=O)O [copper-64 labelled]
activity concentration (human, adrenal; concentration not given, 3 h): 2690 Bq/mL and 2510 Bq/mL and 2800 Bq/mL and 1560 Bq/mL and 2000 Bq/mL and 3550 Bq/mL

CCCCNCCO.O=C(O)C(Cl)Cl
herbicidal inhibition (Eclipta prostrata; 15 mg/mL, 21 days, pre-emergence, greenhouse): 0%

CC(C)c1ccc(N(C)c2ccc3c(c2)OCC[C@H]3CNc2cnccc2C(=O)O)cc1
IC50 (NCI-H1793; cell growth or viability, ATP luminescence; 7 days): 15.3 nM

COc1ccc(C(=O)CCc2cc(C(CCc3ccc(O)cc3OC)c3ccc(O)cc3)c(O)cc2OC)cc1 (racemic)
20-OH-LTB4 level (human blood; 1 µM, added: A23187): 566 ± 227 pg/mL

CNS(=O)(=O)Nc1nccc(Cc2c(C)c3ccc(Oc4ncccc4F)cc3oc2=O)c1F
IC50 (A673; cell viability; 7 days): > 1000 nM

O=C(N/N=C/c1ccc2c(ccc[n+]2Cc2ccccc2)c1)c1cccc(C(=O)N/N=C/c2ccc3c(ccc[n+]3Cc3ccccc3)c2)c1
ΔTm (myc22 MYC G4-DNA parallel; FRET melting; 1 µM, K1 buffer, DNA 0.2 µM, added: ds26 10 µM): 10.6 ± 0.2 °C

C=C(NC(=O)c1csc(-c2nc3c(cc2O)-c2nc(cs2)C(=O)NC(C(C)O)C(=O)NC(=C(C)OC)c2nc(cs2)C(=O)NC2c4nc(cs4)C(=O)NC(COC(=O)c4c5c6c(cccc6n4O)COC(=O)C(OC4CC(C)(O)C(N(C)C)C(C)O4)C2OC5)c2nc-3cs2)n1)C(N)=O (centres unmarked)
lung bacterial load at ED50 (Streptococcus pneumoniae; ATCC 49619, immunocompromised mice, lung infection; bid dosing): 5.33 log CFU/g

For quick reference, copied from above:
CC(C)C[C@H](NC(=O)[C@H](Cc1ccc(O)cc1)NC(=O)[C@@H](CCCNC(=N)N)NC(=O)[C@@H](CO)NC(=O)[C@H](Cc1ccccc1)NC(=O)[C@H](CC1CCCCC1)NC(=O)[C@H](CC(=O)O)NC(=O)CN1CCN(CC(=O)O)CCN(CC(=O)O)CCN(CC(=O)O)CC1)C(=O)N[C@@H](Cc1c[nH]c2ccccc12)C(=O)N[C@@H](CO)C(=O)O [copper-64 labelled]
activity concentration (human, adrenal; concentration not given, 3 h): 2690 Bq/mL and 2510 Bq/mL and 2800 Bq/mL and 1560 Bq/mL and 2000 Bq/mL and 3550 Bq/mL

CNS(=O)(=O)Nc1nccc(Cc2c(C)c3ccc(Oc4ncccc4F)cc3oc2=O)c1F
IC50 (A673; cell viability; 7 days): > 1000 nM

CC(C)c1ccc(N(C)c2ccc3c(c2)OCC[C@H]3CNc2cnccc2C(=O)O)cc1
IC50 (NCI-H1793; cell growth or viability, ATP luminescence; 7 days): 15.3 nM
